# Assay results pooled from the literature.
# Each numbered part is a random draw from the data of one study; scales do not carry over between parts. Positions count from the first letter of the parent shown.

# Series 1
# Target: CCNE2, cyclin fold, Cln2 fusion (human)
# Technique: yeast growth competition, sequencing
# Medium: yeast
# Setting: strong parent motif
# Reference: not given
# Direction: higher = stronger binding
# Starting sequence: BRCA2 docking peptide (human); CKKRRALDFLSRL; partner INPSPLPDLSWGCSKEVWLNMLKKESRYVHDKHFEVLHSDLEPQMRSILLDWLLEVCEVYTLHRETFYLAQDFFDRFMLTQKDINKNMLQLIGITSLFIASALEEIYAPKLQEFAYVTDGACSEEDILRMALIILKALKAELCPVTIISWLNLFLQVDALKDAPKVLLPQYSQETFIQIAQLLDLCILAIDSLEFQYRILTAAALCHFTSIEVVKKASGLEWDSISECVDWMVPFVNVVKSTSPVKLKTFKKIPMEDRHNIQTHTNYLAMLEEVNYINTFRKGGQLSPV
Change,normalised enrichment score
K2A,0.796
L10A,1.66
R5A,1.4
F9L,0.8
L7A,1.32
S11A,1.82
L13A,1.29

# Series 2
# Target: RING finger protein unkempt homolog, zinc fingers 1-6, GST-SBP tag (UNK, Homo sapiens, UniProt Q9C0B0, residues 30-357)
# UniProt Q9C0B0, sequence (30-357, looked up): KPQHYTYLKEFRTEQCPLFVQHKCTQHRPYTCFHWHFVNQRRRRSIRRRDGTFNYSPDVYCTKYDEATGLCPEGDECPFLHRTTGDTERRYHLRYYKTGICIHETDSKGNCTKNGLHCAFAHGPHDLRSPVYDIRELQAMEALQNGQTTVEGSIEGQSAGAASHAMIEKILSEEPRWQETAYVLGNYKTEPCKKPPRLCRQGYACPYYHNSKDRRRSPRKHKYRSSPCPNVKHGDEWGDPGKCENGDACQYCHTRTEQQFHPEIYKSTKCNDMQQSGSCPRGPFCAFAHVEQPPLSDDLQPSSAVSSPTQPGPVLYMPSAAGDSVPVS
# Technique: RNA Bind-n-Seq
# Form: RNA
# Medium: in vitro
# Concentration: not given
# Setting: RNA with constant flanks, human-mouse chimeric sites, ends assumed
# Reference: input RNA pool
# Direction: higher = stronger binding
Sequence,bound/input enrichment [ratio]
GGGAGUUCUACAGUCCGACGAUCAGAUUCCCUCUCUUAAAACCUCCUCCGAAGUUGGAGUCUCUUACAGAUGCCUCAUCCCCUGUUAGCGUUUUAGUUUGGACCACCCAGCCUUGGACAAUUCCCGCCAACCAGGCAAUUUGCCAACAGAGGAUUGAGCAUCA,1.18
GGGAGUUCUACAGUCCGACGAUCGGAAGUACAAUGAUGGAGAUUGAUGGUGACAAAGGCAAACAAGGCGGGCCCACCUACUACAUAGACACCAAUGCCCUCCGCGUGCCCAGGGAGAACAUGGAGGCCAUCUCACCACUCAAGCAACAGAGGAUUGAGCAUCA,0.241
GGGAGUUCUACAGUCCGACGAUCUUAAUCCCCUUUACUGCUCCCCCACUUCUCAUGGUAAUAACAAAGUCUUAUAUCCCCAUAUUAGCUUUCACUCAGAUGGCUUAUGGAGCCAGUUUCCUAGCUUUCUUGGGAGGGAUCAGACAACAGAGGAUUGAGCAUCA,0.385
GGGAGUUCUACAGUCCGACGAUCCCCCAAUACCAUUUGCAGGUCUGGAACUGCACUCUCUUUAAAGUUUUACAUGUAUACAUUUUAGGGCUGUAGAUUUACUUUCCUAUUUUUGUUUUUCAUUGCUGACUUUUGAGCACAGAACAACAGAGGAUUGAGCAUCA,0.861
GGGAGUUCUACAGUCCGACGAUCAUAGAUGAAAUUGAUGUGGACCAGGAAGGAAUUGCUGAAAUGAUCCUGGAUGAAAAUGCUAUUGCUCAAGUUCCACGCCCUGGCACAUCUUUGAAACUCCCUGGCACUAACCAAACAGGACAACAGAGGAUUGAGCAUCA,0.266
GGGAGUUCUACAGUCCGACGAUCCUCGGCACCGGCACGCUUUACAUCGCGGAGAGCCGCCUGUCUUGGUUAGAUGGUUCGGGAUUAGGAUUCUCACUGGAAUACCCCACCAUUAGUUUACAUGCGGUGUCCAGGGAUCCAAACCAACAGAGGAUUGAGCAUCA,0.407
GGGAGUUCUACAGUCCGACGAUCGUAGCUGGGACUACAGAAAUGCUGGUAGUGCUCCGGCCUUGCUGAUGACUUCUGAUGUCCCAGCAAAUGUUGGCAUUCACUGCAAUAGAGAAGAUACUUCUGAGGACCCACGUCUAAGGUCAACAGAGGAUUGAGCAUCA,0.166
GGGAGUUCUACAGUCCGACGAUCCUCGGCACUGGUACCCUUUACAUCGCGGAGAGCCGCCUGUCCUGGUUAGAUGGUUCGGGAUUAGGAUUCUCACUGGAAUACCCCACCAUUAGUUUACAUGCAUUAUCCAGGGAUCCAAACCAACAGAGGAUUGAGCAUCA,3.17
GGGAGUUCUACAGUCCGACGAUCGUUGCCAGCUUCCGGUUCCGUUGGGCUCGGUUCUCUCCUGAGCUACGUGUCUCUACGCUCUCAAUCCGCCAUCCAACAAACAUGGAUCAGGUAAUGCUGCAGUUUGUGCCCAGCCGGCAGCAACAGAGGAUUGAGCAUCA,0.191
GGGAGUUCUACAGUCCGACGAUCGUGACUGGUGUUAAGAUUUCCCCUCAGCAAAGAAGUGCAGUAGUCACAAUAAUCCCUUCUAUAGUGAGUGCCAGUCAGAUUGUGGAGCUGGUCCCAGACCUCAGUUUAGACAUGGGAACUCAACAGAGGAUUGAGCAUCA,1.3
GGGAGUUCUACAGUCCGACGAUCAUGGAACAUUUCGAUGCAUCACUUAGUACCUAUUUCAAGGCCUUCCUGGGCCCCCGAGAUACAAGAGUAAAAGGAUGGUUCCUCCUGGACAAUUACAUCCCUACGUUUGUCUGUUCUGUUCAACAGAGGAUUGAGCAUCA,0.275

# Series 3
# Target: Fragile X messenger ribonucleoprotein 1, C-terminal low-complexity region (Fmr1, Mus musculus, UniProt P35922)
# Technique: RNA Bind-n-Seq
# Form: RNA
# Medium: in vitro
# Concentration: 200 nM
# Setting: whole 134-nt RNA, ends assumed
# Together with: 150 mM KCl
# Reference: input library
# Direction: higher = stronger binding
Sequence,log2 enrichment
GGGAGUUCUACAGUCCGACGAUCACCAUGCAGGUGGGCAUCUUUGGGAAGUGGGGCAAGGGGGGGAUAGGGAGGGGGGUAACACUUUGGGAGCAGGUGGUCCCAGGUCGUUUCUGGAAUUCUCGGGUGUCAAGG,0.701
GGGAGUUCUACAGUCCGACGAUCACCAUGCAGGUGGGCAUCUUUGGGAAGUGGGGCAAGGAAAGGAUAGGGAGGGGGGUAACACUUUGGGAACAGGUGGUCCCAGGUCGUUUCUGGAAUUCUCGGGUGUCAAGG,0.498
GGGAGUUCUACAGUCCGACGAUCCAAGUCCUGUGCUACACAUCGUAUGUACCGAAUCGGGUUUGGGUUUGGGUUUGGGGAAAGUAUUAUGUUACGCCGUUCGGAUCUGCACUUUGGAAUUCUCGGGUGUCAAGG,1.07
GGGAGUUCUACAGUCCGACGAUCCCUGUGCUACACAUCGUAUGUACCGAAUCGGGGAAAGGGGAAAAAAAGGGGUUUUUGGGGAAAGUAUUAUGUUACGCCGUUCGGAUCUGCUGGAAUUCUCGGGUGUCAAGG,0.267
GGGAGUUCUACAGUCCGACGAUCUGGCCCUGGUGGCAUGCGGGGAGGAAGAGGUGGCCUCAUGGAUCGUGGUGGUCCCGGUGGAAGGUUCAGAGGUGGCCGUGGUGGAGACAGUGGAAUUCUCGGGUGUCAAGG,0.248
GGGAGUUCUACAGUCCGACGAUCCCUGUGCUACACAUCGUAUGUACCGAAUCGGCCCCCCGGGGCCCCCCGGGCCCCCCGGGGAAAGUAUUAUGUUACGCCGUUCGGAUCUGCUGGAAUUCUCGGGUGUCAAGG,-0.802
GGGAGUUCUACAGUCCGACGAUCCACAGACAACACGCACCCACACAGACACAGAGGGAAGGGGUUGGGAUGGGGACAGGGUGCACAGCAGGGCGGGGUAGGACCGCAGCCCCUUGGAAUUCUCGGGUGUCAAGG,1.17
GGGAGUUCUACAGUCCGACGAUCGUCCUGUGCUACACAUCGUAUGUACCGAAUCGGGUUUUUGGUUUUUGGGGUUUUUGGGAAAGUAUUAUGUUACGCCGUUCGGAUCUGCACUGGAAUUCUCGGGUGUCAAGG,-0.116
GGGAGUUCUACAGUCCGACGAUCAGUCCUGUGCUACACAUCGUAUGUACCGAAUCAAAUUUAAAUUUUUAAAUUUUUAAAAAAGUAUUAUGUUACGCCGUUCGGAUCUGCACUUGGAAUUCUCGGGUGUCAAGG,-1.39
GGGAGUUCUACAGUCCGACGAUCUGGGAGGUGGAUUUAGUUUAUUUUUUUAGCUCAUUUCCAGGGGUGGGAAUUUUUUUUUAAUAUGUGUCAUGAAUAAAGUUGUUUUUGAAAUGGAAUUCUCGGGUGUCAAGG,0.215
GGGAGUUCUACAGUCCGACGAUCGCAGGAAGUAAAAACAAAUGGAAAUGCUUCGGAUAGUGGCAGGGGUGGGGGUUGCUAAGGAAGGGGUGGGAUGGGAGUGGGUAAAGAGUUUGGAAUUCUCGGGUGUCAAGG,-0.161
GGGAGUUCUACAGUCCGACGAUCUAACUUUAGAGGAGGAUCUGAUGUAUAUGGCAGUGGACGUGGAUUUGGGGAUGGCUAUAAUGGGUAUGGAGGAGGACCUGGAGGUGGCAAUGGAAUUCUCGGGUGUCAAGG,0.244
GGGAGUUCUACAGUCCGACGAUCAGUCCUGUGCUACACAUCGUAUGUACCGAAUCAAAUUUAAACCCAAAUUUUUUUAAAAAAGUAUUAUGUUACGCCGUUCGGAUCUGCACUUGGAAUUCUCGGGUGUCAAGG,0.0959
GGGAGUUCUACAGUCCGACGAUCUGGGAGGUGGAUUUUGUUUAUUUUUUUAGCUCAUUUCUAGGGGUGGGAAUUUUUUUUUAAUAUGUGUCAUGAAUAAAGUUGUUUUUGAAAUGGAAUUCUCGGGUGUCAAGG,0.107

# Series 4
# Target: RNA binding protein fox-1 homolog 2, RRM domain, GST-SBP tag (RBFOX2, Homo sapiens, UniProt O43251-10, residues 100-194)
# Technique: RNA Bind-n-Seq
# Form: RNA
# Medium: in vitro
# Concentration: 365 nM
# Setting: natural RNA segment, single round, ends assumed
# Reference: no-protein control
# Direction: higher = stronger binding
# Residues (chain): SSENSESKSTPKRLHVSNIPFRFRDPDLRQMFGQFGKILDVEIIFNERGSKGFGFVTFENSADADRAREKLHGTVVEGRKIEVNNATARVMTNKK
Sequence,RBNS enrichment (R)
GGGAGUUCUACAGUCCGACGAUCCUGGCUUCAGUUCCCUGGCUGCUGCUUUGCCUCCUGAAAGCCACUCUGUAGGACCAAGCACUCGGGGGAGAGGCCUAAGCCAUCCUCUGUUCCAGACUGGACAUCCACUGUGGAAUUCUCGGGUGCCAA,0.423
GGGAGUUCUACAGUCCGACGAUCCUCCCCAUCUUCCCUAGAGGCUGCCUGCGCAUCUGGAGCCUGCGCUCCGGCUCAGCGACCUUUCCUCUCAAAUGCGGAAGCGUGCACUUACAGUUCAGACCGUUCUCCUGUGGAAUUCUCGGGUGCCAA,0.343
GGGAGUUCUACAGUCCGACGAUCGGAAGAUACAGGAGUCUGCCACCUGUCAUAGAAGGGUGCUGCCAACUUGAUGCUCUACCUGCCACCAACCACCAGGACUGAAGGAAGGAAACAGUACUGAGGGCAAAGUUUGGAAUUCUCGGGUGCCAA,0.664
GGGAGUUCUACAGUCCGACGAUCUGCCCCAGGACCUUGAGAGACAGCAGCAUUCCAGGCACAGACAGACUUGGCUGCACCCCACUGUCCCUUGCAAGACAGGUUCUGGAGCCAGGAGCAACUGUCCAGCCCUCUGGAAUUCUCGGGUGCCAA,0.442
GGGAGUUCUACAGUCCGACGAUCUCCGUCCCCAAUCUAAAAAGCAAUUGAAAAGGUCUAUGCAAUAAAGGCAGUCGCUUCAUUCCUCUCAGACCUUCUGCCCUUCCUCCAUCCGACAGCCCGCGGGAGGACUCUGGAAUUCUCGGGUGCCAA,0.82
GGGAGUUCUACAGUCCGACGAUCGGUCUCAUCUGUAAGCUGCUACAGCCCAGAUGAACUCUGCCAGCCGCCAGUGCAUCCAGUACAGCGCCUGCCAUCUUGUGCAAUGUGCAACCCUGGGAUGUGAGCCCUGCUGGAAUUCUCGGGUGCCAA,0.219
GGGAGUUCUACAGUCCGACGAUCGGAAAGGAACCAAGUGACUCUGAUGUUUACAAAGCACCUAUGAAACCCUGUACACACCUAGUUCAUAAUCCUCAUAAUUUAUCAACAAACACAAAAAAGUGUCUUACUUGUGGAAUUCUCGGGUGCCAA,0.505
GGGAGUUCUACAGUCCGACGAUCUUUUCAAGUUUUACAGAAGCAGAGCUUUUCCCUAAGUUCCUCUUCGGUUCACUGUAGAUCCAGUUCUUCCAGCCGCUUCAGCACUGAGGCGCCAUGAAUGCGGUUUCUCUUGGAAUUCUCGGGUGCCAA,0.279
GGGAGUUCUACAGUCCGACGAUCUUCCCUCACACACUGUGACUAUUGGGAGACUGCGCCAGUUAGCAGUAGUUCACUCAGCCUUGAUUGUACUGCAAGGGCGAGACAAAAAUAAACGGGAAACGUGCUGUUCAUGGAAUUCUCGGGUGCCAA,0.629
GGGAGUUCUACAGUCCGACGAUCGUAUGGUCCGUGUAGAUUGAUGCAGAUUUUCUGAAAUGAAAUGUUUGUUUAGACGAGAUCAUACCGGUAAAGCAGGAAUGACAAAGCUUGCUUUUCUGGUAUGUUCUAGGUGGAAUUCUCGGGUGCCAA,0.373
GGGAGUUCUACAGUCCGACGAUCGUAAAGCAAGAUGAUACAGAAAGCUGCUCUAAAAUCUCACUGAGUGAUUUCACCUUCGCCUACUAUGAAAUGUCUCAUCAGACCUGACAUGUCUGAGAUAACCAAGGUGAUGGAAUUCUCGGGUGCCAA,0.308
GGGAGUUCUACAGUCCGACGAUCUGUGUAAAGUGCUAGGAAAUUUCCAAUUUGAAAUUUUGCUUUUUCUGGCAUUGGCAAAAAACCAGUAGAAGUGAAUUGUUAGCUGAUGGCCAGGGGGUGUGAUAACAAAUUGGAAUUCUCGGGUGCCAA,1.31
